Published values pooled from the literature.
Compare with care: the assays were run in different laboratories. Numbers after ± are the reported error.

Compound | test | system | setting | how to read | endpoint | result
N=C(N)NCCC[C@@H]1NC(=O)[C@H](CCCCNC(=O)CCc2cn(CCC[C@@H]3O[C@H](COC(=O)NCCNC(=O)CN4CCN(CC(=O)O)CCN(CC(=O)O)CCN(CC(=O)O)CC4)[C@@H](O)[C@H](O)[C@H]3O)nn2)NC(=O)[C@@H](Cc2ccccc2)NC(=O)[C@H](CC(=O)O)NC(=O)CNC1=O [gallium-68 labelled] | PET | female NMRI nu/nu mice, U-87 MG xenograft, tumour | intravenous, 10 MBq, hour 2 of recording |  | SUVmean | 0.21 ± 0.04 SUV
N=C(N)NCCC[C@@H]1NC(=O)[C@H](CCCCNC(=O)CC[C@H](NC(=O)CCOCCOCCOCCOCCNC(=O)CC[C@H](NC(=O)CN2CCN(CC(=O)O)CCN(CC(=O)O)CCN(CC(=O)O)CC2)C(=O)NCCOCCOCCOCCOCCC(=O)N[C@@H](CCC(=O)NCCCC[C@@H]2NC(=O)[C@@H](Cc3ccccc3)NC(=O)[C@H](CC(=O)O)NC(=O)CNC(=O)[C@H](CCCNC(=N)N)NC2=O)C(=O)NCCCC[C@@H]2NC(=O)[C@@H](Cc3ccccc3)NC(=O)[C@H](CC(=O)O)NC(=O)CNC(=O)[C@H](CCCNC(=N)N)NC2=O)C(=O)NCCCC[C@@H]2NC(=O)[C@@H](Cc3ccccc3)NC(=O)[C@H](CC(=O)O)NC(=O)CNC(=O)[C@H](CCCNC(=N)N)NC2=O)NC(=O)[C@@H](Cc2ccccc2)NC(=O)[C@H](CC(=O)O)NC(=O)CNC1=O [indium-111 labelled] |  | athymic nude mice, female, U-87 MG glioma xenograft, tumour and lungs | intravenous, 0.5 h | relative to: tumour over lungs | tumour to tissue ratio | 4.06 ± 1.88
CCCC[C@H](NC(=O)CCCCCCCNC(=O)c1ccc(NN)nc1)C(=O)N[C@H]1CC(=O)NCCCC[C@@H](C(N)=O)NC(=O)[C@H](Cc2c[nH]c3ccccc23)NC(=O)[C@H](CCCNC(=N)N)NC(=O)[C@@H](Cc2ccccc2)NC(=O)[C@H](Cc2c[nH]cn2)NC1=O [technetium-99m labelled] |  | C57 mouse, B16/F1 melanoma, muscle | intravenous, 0.5 h |  | uptake | 0.43 ± 0.14 %ID/g
CC(C)C[C@H](NC(=O)[C@@H]1CCCN1C(=O)[C@H](CCCCN)NC(=O)[C@@H](N)CO)C(=O)N1CCC[C@H]1C(=O)N[C@@H](CCC(=O)O)C(=O)N[C@H](C(=O)N[C@H](C(=O)N[C@@H](CC(=O)O)C(=O)N[C@@H](CCC(=O)O)C(=O)N[C@@H](Cc1ccc(O)cc1)C(=O)N[C@@H](Cc1cn(CCOCCOCCOCCNC(=O)CCc2ccc(O)c(CN(CCN(CC(=O)O)Cc3cc(CCC(=O)NCCCC[C@H](NC(=O)N[C@@H](CCC(=O)O)C(=O)O)C(=O)O)ccc3O)CC(=O)O)c2)nn1)C(=O)O)[C@@H](C)O)C(C)C [gallium-68 labelled] |  | NMRI nu/nu mouse, LNCaP tumour, white adipose tissue | 135.34 nmol/kg, low molar activity |  | standardised uptake value | 0.14 g/g
N=C(N)NCCC[C@@H]1NC(=O)[C@H](CCCCNC(=O)CNC(=O)CNC(=O)CNC(=O)CC[C@H](NC(=O)c2ccc(NN=Cc3ccccc3S(=O)(=O)O)nc2)C(=O)NCC(=O)NCC(=O)NCC(=O)NCCCC[C@@H]2NC(=O)[C@@H](Cc3ccccc3)NC(=O)[C@H](CC(=O)O)NC(=O)CNC(=O)[C@H](CCCNC(=N)N)NC2=O)NC(=O)[C@@H](Cc2ccccc2)NC(=O)[C@H](CC(=O)O)NC(=O)CNC1=O [technetium-99m labelled] |  | athymic nu/nu mouse, female, MDA-MB-435 xenograft | intravenous, 30 min | relative to: tumour over muscle | tumour to tissue ratio | 2.84 ± 0.93
N=C(N)NCCC[C@@H]1NC(=O)[C@H](CCCCNC(=O)CC[C@H](NC(=O)CCOCCOCCOCCOCCNC(=O)CN2CCN(CC(=O)O)CCN(CC(=O)O)CCN(CC(=O)O)CC2)C(=O)NCCCC[C@@H]2NC(=O)[C@@H](Cc3ccccc3)NC(=O)[C@H](CC(=O)O)NC(=O)CNC(=O)[C@H](CCCNC(=N)N)NC2=O)NC(=O)[C@@H](Cc2ccccc2)NC(=O)[C@H](CC(=O)O)NC(=O)CNC1=O [indium-111 labelled] |  | female athymic nude mouse | intravenous, 3 µCi, 4 h, U-87 MG glioma xenograft | relative to: tumour over muscle | tumour to muscle ratio | 6.88 ± 0.87
CCCC[C@H](NC(=O)CNC(=O)CNC(=O)c1ccc(NN)nc1)C(=O)N[C@H]1CC(=O)NCCCC[C@@H](C(N)=O)NC(=O)[C@H](Cc2c[nH]c3ccccc23)NC(=O)[C@H](CCCNC(=N)N)NC(=O)[C@@H](Cc2ccccc2)NC(=O)[C@H](Cc2c[nH]cn2)NC1=O [technetium-99m labelled] |  | C57 mouse, B16/F1 melanoma-bearing, bone | intravenous, 24 h |  | tissue uptake | 0.09 ± 0.03 %ID/g
C/C=C(/C)C(=O)O[C@H]1C(C)=C2[C@H]([C@@H]1OC(=O)CCCCCCC)[C@@](C)(OC(C)=O)C[C@H](OC(=O)CCCCCCCCCCCNC(=O)[C@H](CO)NC(=O)[C@@H]1CCCN1C(=O)CNC(=O)[C@@H](NC(=O)[C@H](CCC(=O)O)NC(=O)CNC(=O)[C@H](CCCNC(=N)N)NC(=O)[C@@H](N)CCC(=O)O)[C@@H](C)O)[C@@]1(O)[C@H]2OC(=O)[C@@]1(C)O |  | mouse, plasma | intravenous |  | Tmax | ≤ 1 h
N=C(N)NCCC[C@@H]1NC(=O)[C@H](CCCCNC(=O)CNC(=O)CNC(=O)CNC(=O)CC[C@H](NC(=O)CCOCCOCCOCCOCCNC(=O)CC[C@H](NC(=O)CN2CCN(CC(=O)O)CCN(CC(=O)O)CCN(CC(=O)O)CC2)C(=O)NCCOCCOCCOCCOCCC(=O)N[C@@H](CCC(=O)NCC(=O)NCC(=O)NCC(=O)NCCCC[C@@H]2NC(=O)[C@@H](Cc3ccccc3)NC(=O)[C@H](CC(=O)O)NC(=O)CNC(=O)[C@H](CCCNC(=N)N)NC2=O)C(=O)NCC(=O)NCC(=O)NCC(=O)NCCCC[C@@H]2NC(=O)[C@@H](Cc3ccccc3)NC(=O)[C@H](CC(=O)O)NC(=O)CNC(=O)[C@H](CCCNC(=N)N)NC2=O)C(=O)NCC(=O)NCC(=O)NCC(=O)NCCCC[C@@H]2NC(=O)[C@@H](Cc3ccccc3)NC(=O)[C@H](CC(=O)O)NC(=O)CNC(=O)[C@H](CCCNC(=N)N)NC2=O)NC(=O)[C@@H](Cc2ccccc2)NC(=O)[C@H](CC(=O)O)NC(=O)CNC1=O [indium-111 labelled] |  | female athymic nude mouse | intravenous, 1 h, U-87 MG glioma xenograft | relative to: tumour over bone | tumour to bone ratio | 5.8 ± 0.65
CCCC[C@H](NC(=O)CNC(=O)CNC(=O)CNC(=O)c1ccc(NN)nc1)C(=O)N[C@H]1CC(=O)NCCCC[C@@H](C(N)=O)NC(=O)[C@H](Cc2c[nH]c3ccccc23)NC(=O)[C@H](CCCNC(=N)N)NC(=O)[C@@H](Cc2ccccc2)NC(=O)[C@H](Cc2c[nH]cn2)NC1=O [technetium-99m labelled] |  | C57 mouse, B16/F1 melanoma | 2 h | relative to: tumour over blood | uptake ratio | 148
CSCC[C@H](NC(=O)[C@H](CC(C)C)NC(=O)[C@H](Cc1c[nH]cn1)NC(=O)CNC(=O)[C@@H](NC(=O)[C@H](C)NC(=O)[C@H](Cc1c[nH]c2ccccc12)NC(=O)[C@H](CCC(N)=O)NC(=O)CCCCCNC(=O)CNC(=O)CNC(=O)CNC(=O)CSC(C)=O)C(C)C)C(N)=O [technetium-99m labelled] |  | nude mouse, PC-3 xenograft, stomach | 90 min |  | tissue uptake | 0.65 ± 0.22 %ID/g
N=C(N)NCCC[C@@H]1NC(=O)[C@H](CCCCNC(=O)CCOCCOCCOCCOCCNC(=O)CN2CCN(CC(=O)O)CCN(CC(=O)O)CCN(CC(=O)O)CC2)NC(=O)[C@@H](Cc2ccccc2)NC(=O)[C@H](CC(=O)O)NC(=O)CNC1=O [indium-111 labelled] |  | athymic nude mice, female, U-87 MG glioma xenograft, tumour and heart | intravenous, 4 h | relative to: tumour over heart | tumour to tissue ratio | 9.51 ± 1.48

For quick reference, copied from above:
Compound | test | system | setting | how to read | endpoint | result
N=C(N)NCCC[C@@H]1NC(=O)[C@H](CCCCNC(=O)CCOCCOCCOCCOCCNC(=O)CN2CCN(CC(=O)O)CCN(CC(=O)O)CCN(CC(=O)O)CC2)NC(=O)[C@@H](Cc2ccccc2)NC(=O)[C@H](CC(=O)O)NC(=O)CNC1=O [indium-111 labelled] |  | athymic nude mice, female, U-87 MG glioma xenograft, tumour and heart | intravenous, 4 h | relative to: tumour over heart | tumour to tissue ratio | 9.51 ± 1.48
